Published values collected from several papers.
Each line is one published result; not all experiments were run side by side.
Cell line: NCI-H522

| SMILES | test | conditions | scale | endpoint | value |
| --- | --- | --- | --- | --- | --- |
| CCCCCCCCCCCCCCCCCCOc1ccccc1CCOP(=O)([O-])OCC[N+](C)(C)C | cell growth or viability, SRB | 10 µM | – | inhibition | 42.5% |
| C1=[N+]2CCCC[N+]3=Cc4ccc5[n]4[Au-]23[n]2c1ccc2-c1nc2ccccc2nc1-5.F[P-](F)(F)(F)(F)F | NCI60 five-dose screen | – | – | TGI | 6.53 -log M |
| CCCC(CCC)C(=O)OCc1cn(-c2cc3ccccc3oc2=O)nn1 | NCI60 single-dose screen | 10 µM | – | growth percentage | 91.2% |
| CN(C)CCN1CCN(c2ccc3nc(-c4ccc5nc(-c6ccc(C(F)(F)F)cc6)[nH]c5c4)[nH]c3c2)CC1 | SRB | 10 µM, 48 h | – | growth percent | 42.1% |
| Cc1ccc([N+](=O)[O-])cc1S(=O)(=O)N(C)/N=C/c1cnc2ccc(Br)cn12 | cell growth or viability | – | – | IC50 | > 10 µM |
| CC(C)c1ccc(N(C)c2ccc3c(c2)OCC[C@H]3CNc2cnccc2C(=O)O)cc1 | cell growth or viability, ATP luminescence | 7 days | – | IC50 | 0.0174 µM |
| O=C(Nc1nnc2c1c(-c1ccc(Cl)cc1)nc1sc(=Cc3ccco3)c(=O)n12)c1ccccc1 (mixture of isomers) | SRB | 10 µM, NCI60 single-dose screen | reference: untreated | cell growth | 13.2% |
| Cc1ccc(C(=O)/C=C/c2ccccc2)s1 | cell growth or viability, SRB | 10 µM | – | inhibition | 6.5% |
| CNS(=O)(=O)Nc1nccc(Cc2c(C)c3ccc(Oc4ncccc4F)cc3oc2=O)c1F | cell viability | 7 days | – | IC50 | > 1 µM |

Excerpt of the above:
| SMILES | test | conditions | scale | endpoint | value |
| --- | --- | --- | --- | --- | --- |
| CCCCCCCCCCCCCCCCCCOc1ccccc1CCOP(=O)([O-])OCC[N+](C)(C)C | cell growth or viability, SRB | 10 µM | – | inhibition | 42.5% |
